Published values from different studies.
Parts stem from different laboratories: compare values within a part only. Positions count from the first letter of the parent shown.

Study 1
Target: Sal-like protein 4, full length isoform B (SALL4, Homo sapiens, UniProt Q9UJQ4-2, residues 1-616)
Method: universal PBM
Form: double-stranded DNA, one strand shown
Matrix: in vitro
Tested at: not given
Notes: 8-mer, flanks averaged, mean of replicates
Reading: higher = stronger binding
`GGCAGACC` has an E-score of -0.334.
The E-score of `CCGTAGCC` is reported as -0.319.
The E-score of `AATATGCT` is reported as 0.342.
`ACAGTTGA` gave an E-score of -0.067.
The E-score of `CTCAGCAA` is reported as 0.107.
For `ATTCCCTA`, the E-score was 0.198.
With `ACCGGAAG` the E-score was -0.103.
`CCCGGTCG` has an E-score of -0.418.
The E-score of `AATCGTAA` is reported as 0.255.
The E-score of `CTGGGGCA` is reported as -0.309.
`CATGACCA` has an E-score of 0.018.
`GAGATTCA` gave an E-score of 0.00437.
With `AGCTGCAG` the E-score was -0.126.
With `AATAAGTA` the E-score was 0.365.
For `AAACTTCG`, the E-score was -0.112.
The E-score of `CCCTAGAC` is reported as -0.0468.
`GACAGTAC` gave an E-score of 0.0853.
`GAGGACTC` gave an E-score of -0.197.
For `GATGACAC`, the E-score was -0.129.
For `GTAGCGCA`, the E-score was -0.109.
For `CTCGCCGC`, the E-score was -0.32.
With `ATAATTCC` the E-score was 0.366.
For `GGAAGTCC`, the E-score was -0.23.
The E-score of `ACATCATA` is reported as 0.268.
For `ATTGTACA`, the E-score was 0.227.

Study 2
Target: CCNE1, cyclin fold, Cln2 fusion (human)
Method: yeast growth competition, sequencing
Matrix: yeast
Notes: weak parent motif
Baseline: not given
Reading: higher = stronger binding
Starting sequence: PKN2 docking peptide (human); VSAVQKLDFSDTM
For `VSATQKLDFSDTM [V4T]`, “normalised enrichment score” read -0.137.
`VSPVQKLDFSDTM [A3P]` — result for “normalised enrichment score”: 0.945.
`VSAVQKLDMSDTM [F9M]`: “normalised enrichment score” -0.331.
`VSAVQKLDFSCTM [D11C]`: “normalised enrichment score” 1.28.
`VSAVQKLDFNDTM [S10N]`: “normalised enrichment score” -0.289.
`VSAVQKLQFSDTM [D8Q]`: “normalised enrichment score” 0.66.
Under “normalised enrichment score”, `VSAVQKLDFADTM [S10A]` is recorded as 0.207.
`VSAVQKGDFSDTM [L7G]`: “normalised enrichment score” -0.721.
Under “normalised enrichment score”, `VSAVQELDFSDTM [K6E]` is recorded as -0.0194.
Under “normalised enrichment score”, `VSAVQKLDFSGTM [D11G]` is recorded as 0.638.
For `VSAVQKLDFSDTY [M13Y]`, “normalised enrichment score” read 1.
Under “normalised enrichment score”, `VSAVQKLDFSDKM [T12K]` is recorded as 0.264.
For `VSAVQKLDFCDTM [S10C]`, “normalised enrichment score” read 0.428.
`VSAVQKLDFSVTM [D11V]`: “normalised enrichment score” 0.974.
For `VSAVQKLDFSNTM [D11N]`, “normalised enrichment score” read 0.0893.
`VSAVQKLDQSDTM [F9Q]` — result for “normalised enrichment score”: -0.0232.
For `VSAVQKLDFSDFM [T12F]`, “normalised enrichment score” read 0.934.
`VSAVQKLDFSSTM [D11S]`: “normalised enrichment score” 0.316.
`VSAVQKLDFSDTN [M13N]`: “normalised enrichment score” 0.757.
For `VSAVQKLDVSDTM [F9V]`, “normalised enrichment score” read -0.656.
For `VSAVQFLDFSDTM [K6F]`, “normalised enrichment score” read 0.494.
`VSLVQKLDFSDTM [A3L]` — result for “normalised enrichment score”: 0.203.
Under “normalised enrichment score”, `VSAVQKLDFSDTP [M13P]` is recorded as -0.191.
Under “normalised enrichment score”, `VSAVQKLAFSDTM [D8A]` is recorded as 0.541.
`VSAVQKLDFSDAM [T12A]`: “normalised enrichment score” 0.715.

Study 3
Target: UBE2M UBC core domain (UniProt P61081)
Method: yeast two-hybrid
Matrix: yeast
Notes: mostly zero background
Baseline: not given
Reading: higher = stronger interaction
B1: DEF8 RING domain (UniProt Q6ZN54); chain AGRLGCSLTEIHTLFAKHIKLDCERCQAKGFVCELCREGDVLFPFDSHTSVCADCSAVFHRDCYYDNSTTCPKCARLSLRK
B2: RNF31 RING domain (UniProt Q96EP0); chain AFLRRLLAQECAVCGWALPHNRMQALTSCECTICPDCFRQHFTIALKEKHITDMVCPACGRPDLTDDTQLL
B3: ANAPC11 RING domain (UniProt Q9NYG5); chain GICRMAFNGCCPDCKVPGDDCPLVWGQCSHCFHMHCILKWLHAQQVQQHCPMCRQEWKFKE
B4: TRIM60 RING domain (UniProt Q495X7); chain ALVNLQEESSCPICLEYLKDPVTINCGHNFCRSCLSVSWKDLDDTFPCPVCRFCFPYKSFRR
B5: RNF2 RING domain (UniProt Q99496); chain SPRSLHSELMCPICLDMLKNTMTTKECLHRFCADCIITALRSGNKECPTCRKKLVSKRSLR
B6: RNF122 RING domain (UniProt Q9H9V4); chain AKKLQLYGQTCAVCLEDFKGKDELGVLPCQHAFHRKCLVKWLEVRCVCPMCNKPIASPSEAT
B7: RNF183 RING domain (UniProt Q96D59); chain EQQGRELEAECPVCWNPFNNTFHTPKMLDCCHSFCVECLAHLSLVTPARRRLLCPLCRQPTVLASGQP
B8: TRIM26 RING domain (UniProt Q12899); chain PLRSLEEEVTCSICLDYLRDPVTIDCGHVFCRSCTTDVRPISGSRPVCPLCKKPFKKENIRP
B9: MYCBP2 RING domain (UniProt O75592); chain TSLKQDADDMCMICFTEALSAAPAIQLDCSHIFHLQCCRRVLENRWLGPRITFGFISCPICKNKINHIVLKD
Residues (chain): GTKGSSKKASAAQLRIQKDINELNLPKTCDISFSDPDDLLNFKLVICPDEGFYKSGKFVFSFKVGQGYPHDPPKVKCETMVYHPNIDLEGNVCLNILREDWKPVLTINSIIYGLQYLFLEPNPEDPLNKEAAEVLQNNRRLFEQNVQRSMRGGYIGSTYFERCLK
`B1 (DEF8 RING domain)`: “lacZ reporter activity” 0.
For `B2 (RNF31 RING domain)`, “lacZ reporter activity” read 0.
For `B3 (ANAPC11 RING domain)`, “lacZ reporter activity” read 0.
Under “lacZ reporter activity”, `KPDKMEETLTCIICQDLLHDCVSLQPCMHTFCAACYSGWMERSSLCPTCRCPVERICKNH (CHFR RING domain (UniProt Q96EP1))` is recorded as 0.
`QVQSRTKIEECVVCSDKKAAVLFQPCGHMCACENCANLMKKCVQCRAVVERRVPFI (MIB1 RING domain (UniProt Q86YT6))` — result for “lacZ reporter activity”: 0.
Under “lacZ reporter activity”, `AEADPLGRFTCPVCLEVYEKPVQVPCGHVFCSACLQECLKPKKPVCGVCRSALAPGVRAV (RNF114 RING domain (UniProt Q9Y508))` is recorded as 0.
`RYRQMEERITCPICIDSHIRLVFQCGHGACAPCGSALSACPICRQPIRDRIQIF (MIB2 RING domain (UniProt Q96AX9))`: “lacZ reporter activity” 0.
For `B4 (TRIM60 RING domain)`, “lacZ reporter activity” read 0.
`B5 (RNF2 RING domain)`: “lacZ reporter activity” 0.
Under “lacZ reporter activity”, `LDAASGHPLVCPLCHGQYERPCLLDCFHDFCTGCLRGRATDGRLSCPLCQHQTLVKGPSG (Rnf207 RING domain (UniProt Q3V3A7))` is recorded as 0.
Under “lacZ reporter activity”, `B6 (RNF122 RING domain)` is recorded as 0.
For `B7 (RNF183 RING domain)`, “lacZ reporter activity” read 0.
`B8 (TRIM26 RING domain)`: “lacZ reporter activity” 0.
`B9 (MYCBP2 RING domain)`: “lacZ reporter activity” 0.

Study 4
Target: ABI1, truncated, D143A, DHFR fusion (Arabidopsis thaliana)
Method: DHFR PCA, deep sequencing
Matrix: yeast
Notes: methotrexate growth selection, single substitutions
With: (+)-ABA 0.11 µM
Baseline: wild-type fitted maximum
Reading: higher = stronger binding
Starting sequence: PYL1, truncated, DHFR fusion (Arabidopsis thaliana); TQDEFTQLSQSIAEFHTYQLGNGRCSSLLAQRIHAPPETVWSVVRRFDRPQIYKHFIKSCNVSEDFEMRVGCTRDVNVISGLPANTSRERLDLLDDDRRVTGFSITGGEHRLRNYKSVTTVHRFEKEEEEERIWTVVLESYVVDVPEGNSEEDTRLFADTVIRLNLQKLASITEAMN; partner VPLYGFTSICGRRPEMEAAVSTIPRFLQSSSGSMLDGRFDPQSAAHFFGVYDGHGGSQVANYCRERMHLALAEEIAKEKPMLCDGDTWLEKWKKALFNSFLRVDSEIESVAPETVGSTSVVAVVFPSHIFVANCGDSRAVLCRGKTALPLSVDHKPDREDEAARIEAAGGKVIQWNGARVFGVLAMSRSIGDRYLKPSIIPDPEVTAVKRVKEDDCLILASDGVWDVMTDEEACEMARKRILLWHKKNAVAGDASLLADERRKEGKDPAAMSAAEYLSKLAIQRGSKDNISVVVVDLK
For `G108K`, “relative binding score” read 0.0238%.
For `D96R`, “relative binding score” read -1.67%.
`W41Q`: “relative binding score” -2.26%.
`G148W` — result for “relative binding score”: 2.93%.
`L20P` — result for “relative binding score”: 44.8%.
For `H34I`, “relative binding score” read 5.32%.
`D48E`: “relative binding score” 4.36%.
`T120K` — result for “relative binding score”: -8.56%.
`V142Y` — result for “relative binding score”: -2.01%.
`R49L` — result for “relative binding score”: 3.34%.
Under “relative binding score”, `V40R` is recorded as -0.85%.
`K116T` — result for “relative binding score”: 12.1%.
For `C72I`, “relative binding score” read 10.8%.
For `M68Q`, “relative binding score” read 1.26%.
`E67P`: “relative binding score” 6.24%.
Under “relative binding score”, `D48T` is recorded as -2.66%.
Under “relative binding score”, `P146L` is recorded as 25.2%.
`N22D`: “relative binding score” 51.3%.
`Y115K` — result for “relative binding score”: -0.971%.
Under “relative binding score”, `G81Q` is recorded as 7.86%.
`I33T` — result for “relative binding score”: -0.975%.
`A35V`: “relative binding score” -0.753%.
Under “relative binding score”, `Q10L` is recorded as 11.6%.
For `E139V`, “relative binding score” read 17.6%.
Under “relative binding score”, `K54T` is recorded as -6.89%.

Some of these lines once more (study 4):
`L20P` — result for “relative binding score”: 44.8%.
For `H34I`, “relative binding score” read 5.32%.
`D48E`: “relative binding score” 4.36%.
`T120K` — result for “relative binding score”: -8.56%.
`V142Y` — result for “relative binding score”: -2.01%.
`R49L` — result for “relative binding score”: 3.34%.
